Measured values gathered from unrelated publications.
Every numbered part comes from another study and shows a few of its results, in no order. Positions count from the first letter of the parent shown.

Set 1
Target: RING finger protein unkempt homolog, zinc fingers 1-6, GST-SBP tag (UNK, Homo sapiens, UniProt Q9C0B0, residues 30-357)
Method: RNA Bind-n-Seq
Molecule type: RNA
Medium: in vitro
Concentration: not given
Notes: RNA with constant flanks, human-mouse chimeric sites, ends assumed
Relative to: input RNA pool
Direction: higher = stronger binding
Residues (chain): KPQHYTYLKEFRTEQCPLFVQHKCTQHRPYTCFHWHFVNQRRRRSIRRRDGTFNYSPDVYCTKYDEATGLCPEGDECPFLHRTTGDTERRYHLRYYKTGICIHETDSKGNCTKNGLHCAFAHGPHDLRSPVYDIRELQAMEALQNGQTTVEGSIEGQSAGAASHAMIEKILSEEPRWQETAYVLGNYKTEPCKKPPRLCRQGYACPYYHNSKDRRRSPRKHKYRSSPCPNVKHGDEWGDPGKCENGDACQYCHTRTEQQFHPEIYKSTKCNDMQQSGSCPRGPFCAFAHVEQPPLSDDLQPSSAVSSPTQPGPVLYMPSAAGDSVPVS
| Oligonucleotide | bound/input enrichment [ratio] |
| --- | --- |
| GGGAGUUCUACAGUCCGACGAUCGUUGCCAGCUUCCGGUUGGCCUCCAUCCGGUUCUCUCCUGAGCUACGUGUCUCUACGCUCUCAAUCCGCCAUCCAACGGCAGUCAUGCAGGUAAUGCAGUUUGUGGAGCCCAGCCGGCAGCAACAGAGGAUUGAGCAUCA | 0.0799 |
| GGGAGUUCUACAGUCCGACGAUCUCAGGAACCCAGACAAACAUGAAUGUAAAUGAAGUCAUUAGCAAUAGAGCAAUUGAAAUGUUAGGAGGUGAACUUGGCAGCAAGAAGCCUGUGCACCCCAAUGAUCAUGUUAAUAAAAGCCAACAGAGGAUUGAGCAUCA | 0.829 |
| GGGAGUUCUACAGUCCGACGAUCGGCUGCUGGUGACUGUCCUGGAGUGGCUGGAGUUCCCCCGGAACCUGGGCCAGACUAAUUUUAGAAAAUGCCAAGUAGGAAGUUUGUCGAUGGUGAAGUGGUCAGAGGCCGAUGGCCUGGCAACAGAGGAUUGAGCAUCA | 1.6 |

Set 2
Target: CCNB3, cyclin fold, Cln2 fusion (human)
Method: yeast growth competition, sequencing
Medium: yeast
Notes: weak parent motif
Relative to: not given
Direction: higher = stronger binding
Starting sequence: ORC1 docking peptide (human); PRARKRLELGNLG; partner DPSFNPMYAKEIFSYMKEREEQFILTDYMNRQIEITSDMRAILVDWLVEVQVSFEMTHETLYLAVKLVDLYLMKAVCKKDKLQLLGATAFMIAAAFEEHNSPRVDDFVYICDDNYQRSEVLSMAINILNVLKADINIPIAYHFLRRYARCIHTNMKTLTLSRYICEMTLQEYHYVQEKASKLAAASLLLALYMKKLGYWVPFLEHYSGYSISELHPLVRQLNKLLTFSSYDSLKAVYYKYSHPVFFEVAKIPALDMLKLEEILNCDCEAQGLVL
| Variant | normalised enrichment score |
| --- | --- |
| L7G | -0.0664 |
| A3N | 0.358 |
| R2S | 0.102 |
| G10V | 0.142 |
| R2V | 0.193 |

Set 3
Target: Interferon regulatory factor 7, full length, phosphomimetic (IRF7, Homo sapiens, UniProt Q92985, residues 1-503, S471D/S472D/S475D/S476D/S477D/S483D/S484D/S487D)
Method: protein-binding microarray
Molecule type: double-stranded DNA, one strand shown
Medium: in vitro
Concentration: 2200 nM top
Notes: 60-bp whole probe
Added: salmon DNA 0.4 mg/ml
Relative to: random background probes
Direction: higher = stronger binding
Target sequence (chain): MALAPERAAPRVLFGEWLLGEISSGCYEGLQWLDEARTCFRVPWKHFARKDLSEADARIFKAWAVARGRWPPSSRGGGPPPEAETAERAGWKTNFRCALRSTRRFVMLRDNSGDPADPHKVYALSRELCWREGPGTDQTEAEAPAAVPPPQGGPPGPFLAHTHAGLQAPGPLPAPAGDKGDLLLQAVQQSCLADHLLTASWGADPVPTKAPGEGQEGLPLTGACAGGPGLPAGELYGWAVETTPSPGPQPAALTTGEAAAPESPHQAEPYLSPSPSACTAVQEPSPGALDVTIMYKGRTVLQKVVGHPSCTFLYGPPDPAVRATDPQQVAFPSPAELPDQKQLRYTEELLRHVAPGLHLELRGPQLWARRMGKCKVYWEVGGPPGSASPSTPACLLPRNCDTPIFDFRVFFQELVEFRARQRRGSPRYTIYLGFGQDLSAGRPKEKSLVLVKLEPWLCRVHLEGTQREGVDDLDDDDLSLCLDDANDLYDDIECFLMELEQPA
| Oligonucleotide | fitted relative affinity |
| --- | --- |
| GCCTAGCACTCATCATTGTTTTTCATACTGTGCTAGGTCTTGATTCGCTTGACGCTGCTG | 1.73 z-score |
| GCCTAGCACTTAGGTCTCGGTATCGATTAGTGCTAGGTCTTGATTCGCTTGACGCTGCTG | 0.558 z-score |
| GCCTAGCACTTAGATTTCAGAGTGGATTAGTGCTAGGTCTTGATTCGCTTGACGCTGCTG | -0.33 z-score |
| GCCTAGCACTTAGGTTTCCACACTGGGTTAGTGCTAGTCTTGATTCGCTTGACGCTGCTG | 0.966 z-score |

Mixed results
| Substance | target | assay | system | setting | scale | quantity | value |
| --- | --- | --- | --- | --- | --- | --- | --- |
| PhoQ, residues 284 288 289 292 302 303 QWGLFV | PhoP, residues 12 14 15 18 19 VQGLL (Escherichia coli, UniProt P23836) | Sort-seq, measured: YFP reporter | E. coli | PhoQ-PhoP variant library, added: 10 µM Mg2+ | relative to: high Mg2+ state, higher = stronger signaling | fold induction | 3.15 |
